Assay results pooled from the literature.
Protocols differ between the studies behind these lines. Values joined by “and” are separate records of one study, mostly repeats; a detail may differ. Numbers after ± are the reported error.
ESR1: Estrogen receptor (ESR1, Homo sapiens, UniProt P03372)
Sequence of UniProt P03372 (whole entry, looked up): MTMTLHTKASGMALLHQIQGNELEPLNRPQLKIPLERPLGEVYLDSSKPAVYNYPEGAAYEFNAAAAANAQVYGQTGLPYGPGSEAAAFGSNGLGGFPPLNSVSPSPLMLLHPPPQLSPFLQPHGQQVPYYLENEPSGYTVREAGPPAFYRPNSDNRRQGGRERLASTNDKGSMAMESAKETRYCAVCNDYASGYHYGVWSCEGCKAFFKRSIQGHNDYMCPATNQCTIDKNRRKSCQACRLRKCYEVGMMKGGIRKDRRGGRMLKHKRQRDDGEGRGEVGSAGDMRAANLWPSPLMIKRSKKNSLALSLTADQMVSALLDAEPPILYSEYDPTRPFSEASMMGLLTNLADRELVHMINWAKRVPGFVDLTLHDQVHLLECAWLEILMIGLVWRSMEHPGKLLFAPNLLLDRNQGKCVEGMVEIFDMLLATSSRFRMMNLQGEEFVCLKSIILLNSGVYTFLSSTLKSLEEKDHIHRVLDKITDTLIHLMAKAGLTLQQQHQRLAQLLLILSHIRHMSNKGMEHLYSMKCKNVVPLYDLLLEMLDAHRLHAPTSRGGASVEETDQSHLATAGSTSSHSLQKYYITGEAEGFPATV
Genome polyprotein NS3 helicase domain: Genome polyprotein, NS3 helicase domain (Hepatitis C virus genotype 1b, UniProt Q9WMX2)
WD repeat-containing protein 91 WD40 domain, residues 392–747: WD repeat-containing protein 91, WD40 domain, residues 392–747 (Homo sapiens, UniProt A4D1P6)
Sequence of UniProt A4D1P6 (whole entry, looked up): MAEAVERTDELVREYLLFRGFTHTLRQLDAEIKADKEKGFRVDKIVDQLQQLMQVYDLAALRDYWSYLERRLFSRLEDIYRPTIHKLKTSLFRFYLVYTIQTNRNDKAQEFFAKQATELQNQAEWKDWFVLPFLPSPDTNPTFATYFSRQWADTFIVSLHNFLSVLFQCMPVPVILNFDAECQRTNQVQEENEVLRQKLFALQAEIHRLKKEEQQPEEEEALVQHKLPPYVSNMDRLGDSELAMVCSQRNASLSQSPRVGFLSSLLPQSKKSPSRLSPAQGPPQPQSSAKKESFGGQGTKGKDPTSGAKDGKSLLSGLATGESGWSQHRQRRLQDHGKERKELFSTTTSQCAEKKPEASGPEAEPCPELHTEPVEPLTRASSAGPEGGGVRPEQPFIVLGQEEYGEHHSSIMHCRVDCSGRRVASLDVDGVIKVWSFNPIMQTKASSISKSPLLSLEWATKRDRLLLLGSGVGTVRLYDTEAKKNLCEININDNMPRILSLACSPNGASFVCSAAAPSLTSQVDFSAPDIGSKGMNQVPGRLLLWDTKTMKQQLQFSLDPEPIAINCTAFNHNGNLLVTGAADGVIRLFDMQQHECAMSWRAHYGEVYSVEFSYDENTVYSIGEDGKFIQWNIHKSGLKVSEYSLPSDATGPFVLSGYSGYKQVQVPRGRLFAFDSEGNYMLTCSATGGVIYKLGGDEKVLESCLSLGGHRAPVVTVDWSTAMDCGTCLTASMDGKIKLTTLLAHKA
CALM1 Ca2+-bound C-lobe: Calmodulin-1, Ca2+-bound C-lobe (CALM1, Homo sapiens, UniProt P0DP23)
Sequence of UniProt P51575 (whole entry, unmodified, looked up): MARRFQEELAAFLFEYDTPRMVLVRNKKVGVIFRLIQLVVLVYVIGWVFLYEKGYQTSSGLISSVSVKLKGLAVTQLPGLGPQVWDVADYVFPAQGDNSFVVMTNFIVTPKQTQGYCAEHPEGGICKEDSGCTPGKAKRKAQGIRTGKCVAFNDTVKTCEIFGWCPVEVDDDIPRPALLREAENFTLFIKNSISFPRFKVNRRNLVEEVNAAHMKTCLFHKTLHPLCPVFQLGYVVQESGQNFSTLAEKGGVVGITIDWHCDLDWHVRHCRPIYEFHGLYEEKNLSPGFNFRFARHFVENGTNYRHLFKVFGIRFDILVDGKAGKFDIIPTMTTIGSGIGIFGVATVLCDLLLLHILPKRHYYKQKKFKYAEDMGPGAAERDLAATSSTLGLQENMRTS
Sequence of UniProt Q99619 (whole entry, looked up): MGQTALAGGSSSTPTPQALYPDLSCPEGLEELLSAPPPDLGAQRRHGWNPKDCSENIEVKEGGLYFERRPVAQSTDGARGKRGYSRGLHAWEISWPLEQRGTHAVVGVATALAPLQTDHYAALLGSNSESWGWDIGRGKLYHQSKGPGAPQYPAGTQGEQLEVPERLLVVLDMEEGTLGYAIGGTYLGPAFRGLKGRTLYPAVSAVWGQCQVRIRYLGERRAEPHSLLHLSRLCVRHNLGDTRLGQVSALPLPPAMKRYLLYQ

`O=P(O)(O)O[C@@H]1[C@@H](OP(=O)(O)O)[C@H](OP(=O)(O)O)[C@H](O)[C@H](OP(=O)(O)O)[C@H]1OP(=O)(O)O` has an activation concentration of ~10 nM (HDAC3 (Homo sapiens, UniProt O15379); deacetylase activity, activator, fluorogenic).
`Cn1c(=O)c2[nH]cnc2n(C)c1=O` gave an inhibition of 0% (Glutamate receptor 2 (Homo sapiens, UniProt P42262); ion current, negative allosteric modulator, SyncroPatch patch clamp; HEK293; 30 µM).
The selectivity ratio of `COc1cc(O)c(CC=C(C)C)c2c1C(=O)CC(c1ccc(O)cc1)O2` (centres unmarked) is reported as 0.932 (ESR1; array formation; PRL-HeLa; reference: EC50 ERβ over EC50 ERα).
With `CC(C)[C@@H]1CC[C@@H](C)C[C@@H]1P(=O)(c1ccccc1)c1ccccc1` the inhibition was 2% (Genome polyprotein NS3 helicase domain; DNA binding, inhibitor; hepatitis C virus; 100 µM, added: Cy5-dT15 DNA).
`O=c1nc(SCc2cc(F)cc(C(F)(F)F)c2)nc(SCc2csc3ccc(Cl)cc23)[nH]1` gave a linear DNA of 0.51% (TOP2A (Homo sapiens, UniProt P11388); DNA cleavage; 15.6 µM, replicate 2).
`N#CC1CCN(C(=O)c2ccc(C=Cc3ccc4ccccc4n3)cc2)CC1` gave an SPR response of 2.5 RU and 3.5 RU (WD repeat-containing protein 91 WD40 domain, residues 392–747; binding, SPR single-concentration screen; 45 µM).
The Ke of `N=C(NC1CCN(c2ncnc3c2nc(-c2ccccc2Cl)n3-c2ccc(Cl)cc2)CC1)c1ccc(F)cc1` is reported as 170 nM (CNR1 (Homo sapiens, UniProt P21554); antagonist, FLIPR calcium mobilisation; CHO-K1 expressing CNR1 and Gαq16; added: CP55940).
`N#Cc1cccc2c1CC[C@H]2NC(=O)c1ccc(Nc2ncnc3ccccc23)cc1` has a binding of 121% and 116% (WD repeat-containing protein 91, residues 392–747 (Homo sapiens, UniProt A4D1P6); SPR dose-response titration; concentration not given, 1:1 binding model).
`CC(C)C[C@H](N)C(=O)O` gave a product formation of 2.23 µM (N-alpha-acetyltransferase 80 (NAA80, Homo sapiens, UniProt Q93015); substrate, DTNB; 2 mM, 30 min, 37 °C, added: acetyl-CoA 500 µM).
`NC1CCN(O)C1=O` (racemic) has an inhibition of 0% (Genome polyprotein NS3 helicase domain; DNA binding, inhibitor; hepatitis C virus; 100 µM, added: Cy5-dT15 DNA).
`O=C(O)[C@@H](O)[C@@H](O)[C@H](O)CO` has a delta Tm of 3.6 °C (Uncharacterized protein (Chromohalobacter israelensis, UniProt Q1QT90); binder, thermal shift).
Under “thermal stability ratio”, `O=C(COP(=O)(O)O)[C@@H](O)[C@H](O)[C@H](O)COP(=O)(O)O` is recorded as 0.638 (Villin-1 (Homo sapiens, UniProt P09327); thermal proteome profiling, measured: VIL1; HepG2 cell lysate; concentration not given, 57 over 37 °C, mean; reference: compound over control).
With `N#Cc1ccc2[nH]cc(CCCCN3CCN(c4ccc5oc(C(N)=O)cc5c4)CC3)c2c1` the Hill coefficient was 1.27 ± 0.25 (SLC6A4 (Homo sapiens, UniProt P31645, E494Q); [3H]5-HT uptake, inhibitor; COS-7).
With `CC(NC(=O)CCCc1ccc2ccc3cccc4ccc1c2c34)C(=O)NO` (centres unmarked) the TΔS° was 7.3 kcal/mol (HDAC8 (Homo sapiens, UniProt Q9BY41); ITC; Tris-HCl buffer; 283 K).
`CC[C@H](C)[C@H](NC(=O)[C@H](CCCCN)NC(=O)CNC(=O)[C@@H](NC(=O)[C@@H](NC(=O)[C@H](CCSC)NC(=O)[C@H](Cc1c[nH]cn1)NC(=O)CN)[C@@H](C)O)C(C)C)C(=O)N[C@@H](Cc1ccc(O)cc1)C(=O)N[C@@H](C)C(=O)N[C@@H](C)C(=O)N[C@@H](CCSC)C(=O)N[C@@H](CCSC)C(=O)N[C@H](C(=O)N[C@@H](CCSC)C(=O)N[C@@H](CCC(=O)O)C(=O)N[C@@H](Cc1ccc(O)cc1)C(=O)N[C@@H](C)C(=O)N[C@@H](CCCNC(=N)N)C(=O)N[C@@H](CCC(N)=O)C(=O)N[C@@H](CO)C(=O)N[C@@H](CCCCN)C(=O)N[C@@H](C)C(=O)N[C@@H](CCCCN)C(=O)N[C@@H](CCCCN)C(=O)N[C@@H](CC(C)C)C(=O)N[C@@H](CCC(N)=O)C(=O)N[C@@H](C)C(=O)N[C@@H](CCSC)C(=O)N[C@@H](CCCNC(=N)N)C(=O)O)[C@@H](C)CC` gave a ΔH of -2.48 ± 0.44 kcal/mol (CALM1 Ca2+-bound C-lobe; binding, isothermal titration calorimetry; pH 7.4, 15 °C, C-lobe, CaV2.1 IQ domain, added: Ca2+).
`Nc1ncnc2c1ncn2[C@@H]1O[C@H](CO[P@](=O)(O)O[P@](=O)(O)O[P@@](=O)(O)S)[C@@H](O)[C@H]1O` — result for “ΔH of binding”: -4.19 ± 0.09 kcal/mol (GUK1 (Homo sapiens, UniProt Q16774); ITC; concentration not given).
The inhibition of `C=C(C)[C@H]1CC=C(C(=O)O)CC1` is reported as 2% (Genome polyprotein NS3 helicase domain; DNA binding, inhibitor; hepatitis C virus; 100 µM, added: Cy5-dT15 DNA).
For `N#CC1CCN(C(=O)c2ccc(Cn3cc(-c4ccc5c(c4)NCCO5)nn3)cc2)CC1`, the binding was -41% and -21% (WD repeat-containing protein 91 WD40 domain, residues 392–747; SPR; 45 µM).
The Ki/Km ratio of `CCCCCCCCCCCCCCc1ccc([C@H]2CC[C@H]([N+](C)(C)CCC)CC2)cc1.[I-]` is reported as 3.6 (SPHK1 (Homo sapiens, UniProt Q9NYA1); inhibitor, radiometric flash-plate; cell lysate; added: sphingosine 10 µM).
`Nc1ncnc2c1ncn2[C@@H]1O[C@H](COP(=O)(O)CP(=O)(O)OP(=O)(O)O)[C@@H](O)[C@H]1O` has a specific binding of 594 CCPM and 606 CCPM and 372 CCPM (P2X purinoceptor 1 (P2RX1, Homo sapiens, UniProt P51575, E122A); saturation binding; HEK293; 52 nM).
`CC1CCCN(C(=O)c2cc3ncccn3n2)C1` (centres unmarked) gave a fold enrichment of 0.749 (SPRY domain-containing SOCS box protein 2, SPRY domain (Homo sapiens, UniProt Q99619); binding, affinity selection mass spectrometry; reference: other proteins in batch).
`CC(=O)N[C@H](C(=O)N1C[C@H](O)C[C@H]1C(=O)NCc1ccc(-c2scnc2C)cc1)C(C)(C)SCCCCCCNC(=O)C[C@@H]1N=C(c2ccc(Cl)cc2)c2c(sc(C)c2C)-n2c(C)nnc21` gave a −TΔS of -6.4 ± 0.3 kcal/mol (BRD2/VHL, BD1; with VCB (Homo sapiens, UniProt P25440+P40337); ITC; 25 °C, BRD2 BD1, ternary).
`N#C/C(=C\c1ccc(O)c(O)c1)C(=O)NCCCNC(=O)/C(C#N)=C/c1ccc(O)c(O)c1` gave an inhibition of 37% (Genome polyprotein NS3 helicase domain; DNA binding, inhibitor; hepatitis C virus; 100 µM, added: Cy5-dT15 DNA).
With `CC[C@H](C)[C@H](NC(=O)[C@H](CCSC)NC(=O)[C@H](CCSC)NC(=O)[C@H](C)NC(=O)[C@H](C)NC(=O)[C@H](Cc1ccc(O)cc1)NC(=O)[C@H](C)NC(=O)[C@H](CCCCN)NC(=O)CNC(=O)[C@@H](NC(=O)[C@@H](NC(=O)[C@H](CCSC)NC(=O)[C@H](Cc1c[nH]cn1)NC(=O)CN)[C@@H](C)O)C(C)C)C(=O)N[C@@H](CCSC)C(=O)N[C@@H](CCC(=O)O)C(=O)N[C@@H](Cc1ccc(O)cc1)C(=O)N[C@@H](Cc1ccc(O)cc1)C(=O)N[C@@H](CCCNC(=N)N)C(=O)N[C@@H](CCC(N)=O)C(=O)N[C@@H](CO)C(=O)N[C@@H](CCCCN)C(=O)N[C@@H](C)C(=O)N[C@@H](CCCCN)C(=O)N[C@@H](CCCCN)C(=O)N[C@@H](CC(C)C)C(=O)N[C@@H](CCC(N)=O)C(=O)N[C@@H](C)C(=O)N[C@@H](CCSC)C(=O)N[C@@H](CCCNC(=N)N)C(=O)O` the ΔS was 23 ± 0.5 cal/mol/K (CALM1 Ca2+-bound C-lobe; binding, isothermal titration calorimetry; pH 7.4, 15 °C, C-lobe, CaV2.1 IQ domain, added: Ca2+).
For `C=CC(=O)N1CCC[C@@H](n2nc(-c3ccc(Oc4ccccc4)cc3)c3c(N)ncnc32)C1`, the remaining activity was 66.9% (SRMS (Homo sapiens, UniProt Q9H3Y6); 0.1 µM).
For `O=c1c(-c2ccc(O[C@@H]3O[C@H](CO)[C@@H](O)[C@H](O)[C@H]3O)cc2)coc2cc(O)cc(O)c12`, the selectivity ratio was 0.715 (ESR1; array formation; PRL-HeLa; reference: EC50 ERβ over EC50 ERα).
`O=S(=O)(O)C1CCNCC1` has a fraction bound of 0 (SLC6A6 (Homo sapiens, UniProt P31641, Y138A); binding, microscale thermophoresis; 32.7 nM, fitted curve; higher = more binding).
`Nc1cc(=O)[nH]c(N)n1` gave an inhibition of 1% (Genome polyprotein NS3 helicase domain; DNA binding, inhibitor; hepatitis C virus; 100 µM, added: Cy5-dT15 DNA).
`CCCCCCSC[C@H]1CN(Cc2c[nH]c3c(N)ncnc23)C[C@@H]1O` gave a release half-life of 18 min (Aminodeoxyfutalosine nucleosidase (Helicobacter pylori, UniProt Q9ZMY2); inhibitor release from complex).

A few entries again:
`O=P(O)(O)O[C@@H]1[C@@H](OP(=O)(O)O)[C@H](OP(=O)(O)O)[C@H](O)[C@H](OP(=O)(O)O)[C@H]1OP(=O)(O)O` has an activation concentration of ~10 nM (HDAC3 (Homo sapiens, UniProt O15379); deacetylase activity, activator, fluorogenic).
With `CC[C@H](C)[C@H](NC(=O)[C@H](CCSC)NC(=O)[C@H](CCSC)NC(=O)[C@H](C)NC(=O)[C@H](C)NC(=O)[C@H](Cc1ccc(O)cc1)NC(=O)[C@H](C)NC(=O)[C@H](CCCCN)NC(=O)CNC(=O)[C@@H](NC(=O)[C@@H](NC(=O)[C@H](CCSC)NC(=O)[C@H](Cc1c[nH]cn1)NC(=O)CN)[C@@H](C)O)C(C)C)C(=O)N[C@@H](CCSC)C(=O)N[C@@H](CCC(=O)O)C(=O)N[C@@H](Cc1ccc(O)cc1)C(=O)N[C@@H](Cc1ccc(O)cc1)C(=O)N[C@@H](CCCNC(=N)N)C(=O)N[C@@H](CCC(N)=O)C(=O)N[C@@H](CO)C(=O)N[C@@H](CCCCN)C(=O)N[C@@H](C)C(=O)N[C@@H](CCCCN)C(=O)N[C@@H](CCCCN)C(=O)N[C@@H](CC(C)C)C(=O)N[C@@H](CCC(N)=O)C(=O)N[C@@H](C)C(=O)N[C@@H](CCSC)C(=O)N[C@@H](CCCNC(=N)N)C(=O)O` the ΔS was 23 ± 0.5 cal/mol/K (CALM1 Ca2+-bound C-lobe; binding, isothermal titration calorimetry; pH 7.4, 15 °C, C-lobe, CaV2.1 IQ domain, added: Ca2+).
`N#CC1CCN(C(=O)c2ccc(C=Cc3ccc4ccccc4n3)cc2)CC1` gave an SPR response of 2.5 RU and 3.5 RU (WD repeat-containing protein 91 WD40 domain, residues 392–747; binding, SPR single-concentration screen; 45 µM).
`Nc1ncnc2c1ncn2[C@@H]1O[C@H](CO[P@](=O)(O)O[P@](=O)(O)O[P@@](=O)(O)S)[C@@H](O)[C@H]1O` — result for “ΔH of binding”: -4.19 ± 0.09 kcal/mol (GUK1 (Homo sapiens, UniProt Q16774); ITC; concentration not given).
